Published values gathered from unrelated publications.
Every numbered part comes from another study and shows a few of its results, in no order.
Sequence of UniProt O75582 (whole entry, looked up): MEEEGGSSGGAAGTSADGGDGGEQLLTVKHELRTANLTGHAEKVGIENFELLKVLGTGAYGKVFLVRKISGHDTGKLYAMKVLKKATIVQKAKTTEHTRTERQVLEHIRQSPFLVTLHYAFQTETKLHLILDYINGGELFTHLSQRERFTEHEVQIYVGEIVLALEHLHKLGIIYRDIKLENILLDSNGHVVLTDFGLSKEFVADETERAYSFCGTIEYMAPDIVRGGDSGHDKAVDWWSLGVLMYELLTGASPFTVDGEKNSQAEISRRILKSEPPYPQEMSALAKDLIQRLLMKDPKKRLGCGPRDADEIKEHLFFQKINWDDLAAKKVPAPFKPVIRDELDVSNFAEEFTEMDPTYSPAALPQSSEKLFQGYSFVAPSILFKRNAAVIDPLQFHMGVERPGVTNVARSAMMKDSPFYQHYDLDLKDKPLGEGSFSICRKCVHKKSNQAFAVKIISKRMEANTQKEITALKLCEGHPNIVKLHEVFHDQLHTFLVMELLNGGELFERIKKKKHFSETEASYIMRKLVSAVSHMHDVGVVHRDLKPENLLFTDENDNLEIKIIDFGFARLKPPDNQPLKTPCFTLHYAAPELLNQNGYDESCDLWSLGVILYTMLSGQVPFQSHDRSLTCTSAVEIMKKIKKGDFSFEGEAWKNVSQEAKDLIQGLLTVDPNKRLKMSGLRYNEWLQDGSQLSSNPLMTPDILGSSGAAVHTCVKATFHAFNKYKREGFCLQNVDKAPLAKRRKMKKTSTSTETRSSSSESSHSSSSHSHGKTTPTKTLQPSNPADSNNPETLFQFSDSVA
Sequence of UniProt P15735 (whole entry, looked up): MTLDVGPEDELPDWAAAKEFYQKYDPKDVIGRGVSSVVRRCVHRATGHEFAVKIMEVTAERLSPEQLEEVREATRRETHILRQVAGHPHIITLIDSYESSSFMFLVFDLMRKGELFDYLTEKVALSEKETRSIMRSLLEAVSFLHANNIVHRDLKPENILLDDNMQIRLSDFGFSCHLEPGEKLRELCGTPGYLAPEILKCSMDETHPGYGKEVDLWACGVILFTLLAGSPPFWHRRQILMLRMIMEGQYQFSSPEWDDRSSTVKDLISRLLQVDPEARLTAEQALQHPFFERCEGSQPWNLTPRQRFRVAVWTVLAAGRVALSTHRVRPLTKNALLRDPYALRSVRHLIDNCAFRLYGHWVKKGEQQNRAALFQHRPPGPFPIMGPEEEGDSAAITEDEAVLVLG
Sequence of UniProt Q9UHD2 (whole entry, looked up): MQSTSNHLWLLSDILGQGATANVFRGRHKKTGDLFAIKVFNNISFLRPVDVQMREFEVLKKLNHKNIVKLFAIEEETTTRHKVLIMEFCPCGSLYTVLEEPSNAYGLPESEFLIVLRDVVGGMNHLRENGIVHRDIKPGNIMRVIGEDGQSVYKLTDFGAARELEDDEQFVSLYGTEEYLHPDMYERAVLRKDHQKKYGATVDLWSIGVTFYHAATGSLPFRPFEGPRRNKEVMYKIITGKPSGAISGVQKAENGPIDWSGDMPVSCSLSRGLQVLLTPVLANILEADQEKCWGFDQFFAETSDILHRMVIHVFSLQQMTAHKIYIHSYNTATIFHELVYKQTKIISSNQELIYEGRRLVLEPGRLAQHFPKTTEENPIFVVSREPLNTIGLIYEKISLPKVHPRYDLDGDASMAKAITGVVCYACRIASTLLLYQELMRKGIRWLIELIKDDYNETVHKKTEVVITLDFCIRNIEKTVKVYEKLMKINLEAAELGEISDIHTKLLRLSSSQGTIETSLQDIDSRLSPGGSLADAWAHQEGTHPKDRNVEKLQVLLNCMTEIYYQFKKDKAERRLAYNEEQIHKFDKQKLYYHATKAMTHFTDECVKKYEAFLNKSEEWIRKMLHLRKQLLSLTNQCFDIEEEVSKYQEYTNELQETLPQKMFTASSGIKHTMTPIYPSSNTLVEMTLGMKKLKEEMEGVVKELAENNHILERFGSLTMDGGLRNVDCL
Sequence of UniProt O75914 (whole entry, looked up): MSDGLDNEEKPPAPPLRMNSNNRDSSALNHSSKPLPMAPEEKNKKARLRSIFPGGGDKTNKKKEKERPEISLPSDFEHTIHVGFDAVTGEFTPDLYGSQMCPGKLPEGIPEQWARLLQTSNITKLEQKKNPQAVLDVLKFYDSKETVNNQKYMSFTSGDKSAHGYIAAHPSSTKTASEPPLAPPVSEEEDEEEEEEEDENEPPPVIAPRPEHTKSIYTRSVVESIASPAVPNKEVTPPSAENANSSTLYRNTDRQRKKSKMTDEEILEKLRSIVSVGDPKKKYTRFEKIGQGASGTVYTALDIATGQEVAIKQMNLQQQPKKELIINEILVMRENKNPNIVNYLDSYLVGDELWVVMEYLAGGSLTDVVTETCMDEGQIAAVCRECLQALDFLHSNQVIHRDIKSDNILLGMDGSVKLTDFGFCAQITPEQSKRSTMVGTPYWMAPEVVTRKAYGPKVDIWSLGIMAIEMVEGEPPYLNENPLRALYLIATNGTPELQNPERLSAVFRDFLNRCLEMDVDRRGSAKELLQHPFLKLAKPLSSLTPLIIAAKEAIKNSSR
Sequence of UniProt Q8WTQ7 (whole entry, looked up): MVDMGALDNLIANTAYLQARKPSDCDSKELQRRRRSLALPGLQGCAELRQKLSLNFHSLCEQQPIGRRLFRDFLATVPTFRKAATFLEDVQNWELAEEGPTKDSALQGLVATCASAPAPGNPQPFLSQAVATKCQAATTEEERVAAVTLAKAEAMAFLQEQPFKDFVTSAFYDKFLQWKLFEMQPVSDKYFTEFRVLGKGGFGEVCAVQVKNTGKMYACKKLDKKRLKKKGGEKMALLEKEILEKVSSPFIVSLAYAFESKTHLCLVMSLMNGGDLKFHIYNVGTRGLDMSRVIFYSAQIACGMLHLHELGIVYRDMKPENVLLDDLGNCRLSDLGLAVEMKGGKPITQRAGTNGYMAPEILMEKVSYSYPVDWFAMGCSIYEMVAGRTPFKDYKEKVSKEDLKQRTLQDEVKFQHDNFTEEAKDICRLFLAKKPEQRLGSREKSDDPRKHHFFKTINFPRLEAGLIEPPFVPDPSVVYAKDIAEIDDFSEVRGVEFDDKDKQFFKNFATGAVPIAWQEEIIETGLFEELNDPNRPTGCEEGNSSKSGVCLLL
Sequence of UniProt O15264 (whole entry, looked up): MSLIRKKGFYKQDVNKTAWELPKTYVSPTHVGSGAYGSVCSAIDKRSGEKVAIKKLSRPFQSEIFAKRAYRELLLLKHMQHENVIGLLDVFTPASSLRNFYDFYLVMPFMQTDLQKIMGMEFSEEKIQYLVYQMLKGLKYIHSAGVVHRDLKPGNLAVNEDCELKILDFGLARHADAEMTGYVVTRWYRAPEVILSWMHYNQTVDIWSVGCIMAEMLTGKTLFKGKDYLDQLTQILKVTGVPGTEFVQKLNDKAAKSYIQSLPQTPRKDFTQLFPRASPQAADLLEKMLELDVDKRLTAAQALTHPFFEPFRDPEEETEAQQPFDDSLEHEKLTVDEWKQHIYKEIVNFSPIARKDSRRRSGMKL
Sequence of UniProt Q9BYT3 (whole entry, looked up): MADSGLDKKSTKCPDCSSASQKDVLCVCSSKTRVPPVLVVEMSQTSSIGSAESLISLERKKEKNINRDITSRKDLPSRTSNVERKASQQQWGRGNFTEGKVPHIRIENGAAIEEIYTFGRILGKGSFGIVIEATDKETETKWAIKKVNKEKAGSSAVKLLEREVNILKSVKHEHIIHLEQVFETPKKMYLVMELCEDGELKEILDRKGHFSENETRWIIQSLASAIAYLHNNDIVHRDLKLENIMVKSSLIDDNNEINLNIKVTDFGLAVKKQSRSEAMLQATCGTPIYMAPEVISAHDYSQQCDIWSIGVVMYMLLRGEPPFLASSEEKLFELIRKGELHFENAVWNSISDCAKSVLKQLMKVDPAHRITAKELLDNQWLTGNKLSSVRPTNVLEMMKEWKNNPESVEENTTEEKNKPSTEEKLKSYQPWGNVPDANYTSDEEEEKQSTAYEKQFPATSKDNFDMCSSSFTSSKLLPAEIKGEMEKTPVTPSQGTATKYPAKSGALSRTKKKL
Sequence of UniProt Q00536 (whole entry, looked up): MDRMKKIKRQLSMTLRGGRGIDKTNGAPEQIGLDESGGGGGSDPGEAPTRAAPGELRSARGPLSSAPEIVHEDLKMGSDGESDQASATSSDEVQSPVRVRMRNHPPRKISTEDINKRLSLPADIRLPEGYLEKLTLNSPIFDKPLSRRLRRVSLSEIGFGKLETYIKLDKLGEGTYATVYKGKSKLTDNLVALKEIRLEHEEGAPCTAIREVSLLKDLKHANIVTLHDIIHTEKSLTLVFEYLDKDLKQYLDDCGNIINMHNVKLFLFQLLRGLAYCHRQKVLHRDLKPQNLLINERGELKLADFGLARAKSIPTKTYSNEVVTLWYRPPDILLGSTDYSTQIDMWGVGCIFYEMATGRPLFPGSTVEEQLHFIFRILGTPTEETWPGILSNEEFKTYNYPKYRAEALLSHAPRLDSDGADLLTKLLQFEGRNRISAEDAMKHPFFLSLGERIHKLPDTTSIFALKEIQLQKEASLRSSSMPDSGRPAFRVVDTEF
Sequence of UniProt P37173 (whole entry, looked up): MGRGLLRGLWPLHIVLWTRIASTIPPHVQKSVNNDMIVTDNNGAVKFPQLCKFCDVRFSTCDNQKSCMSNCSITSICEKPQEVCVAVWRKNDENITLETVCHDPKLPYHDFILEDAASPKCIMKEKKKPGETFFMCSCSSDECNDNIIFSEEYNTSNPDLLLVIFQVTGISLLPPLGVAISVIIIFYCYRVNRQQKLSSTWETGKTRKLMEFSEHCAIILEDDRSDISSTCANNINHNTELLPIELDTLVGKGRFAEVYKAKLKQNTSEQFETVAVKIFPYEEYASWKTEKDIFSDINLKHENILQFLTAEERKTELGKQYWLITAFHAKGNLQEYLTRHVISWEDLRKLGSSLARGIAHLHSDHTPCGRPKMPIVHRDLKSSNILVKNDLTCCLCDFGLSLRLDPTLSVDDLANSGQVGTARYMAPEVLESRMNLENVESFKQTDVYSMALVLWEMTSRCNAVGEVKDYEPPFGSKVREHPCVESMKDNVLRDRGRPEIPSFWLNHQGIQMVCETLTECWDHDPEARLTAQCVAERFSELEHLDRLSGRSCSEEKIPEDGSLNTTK

Study 1
SMILES: C[C@@H]1CN(c2cc(-c3nn(C)c4ccc(OC5(C)CC5)cc34)ncn2)C[C@H](C)O1
Method: competition with immobilised ligand
Concentration: 1 µM
Endpoint: remaining binding
TGF-beta receptor type-2 (TGFBR2, Homo sapiens, UniProt P37173); cell-free assay: 73%
Protein kinase C eta type (PRKCH, Homo sapiens, UniProt P24723); cell-free assay: 100%
Tyrosine-protein kinase JAK1, JH1 (JAK1, Homo sapiens, UniProt P23458); cell-free assay: 100%
Cyclin-dependent kinase 16 (CDK16, Homo sapiens, UniProt Q00536); cell-free assay: 87%
Serine/threonine-protein kinase TBK1 (TBK1, Homo sapiens, UniProt Q9UHD2); cell-free assay: 75%
Serine/threonine-protein kinase TAO2 (TAOK2, Homo sapiens, UniProt Q9UL54); cell-free assay: 80%
Phosphorylase b kinase gamma catalytic chain, liver/testis isoform (PHKG2, Homo sapiens, UniProt P15735); cell-free assay: 100%
Tyrosine-protein kinase ABL1, non-phosphorylated (ABL1, Homo sapiens, UniProt P00519, Q252H); cell-free assay: 93%
Serine/threonine-protein kinase 33 (STK33, Homo sapiens, UniProt Q9BYT3); cell-free assay: 86%
Ribosomal protein S6 kinase alpha-5, N-terminal kinase domain (RPS6KA5, Homo sapiens, UniProt O75582); cell-free assay: 100%
Tyrosine-protein kinase ABL1, phosphorylated (ABL1, Homo sapiens, UniProt P00519, E255K); binding: 79%
Rhodopsin kinase GRK7 (GRK7, Homo sapiens, UniProt Q8WTQ7); cell-free assay: 100%
Serine/threonine-protein kinase PAK 3 (PAK3, Homo sapiens, UniProt O75914); cell-free assay: 100%
Mitogen-activated protein kinase 13 (MAPK13, Homo sapiens, UniProt O15264); cell-free assay: 100%

Study 2
Structure (SMILES): CC(=O)N[C@@H](Cc1c[nH]c2ccccc12)C(=O)N[C@@H](CCC(=O)C=[N+]=[N-])C(=O)OC(C)C
Species: mouse, EL4 tumour-bearing
Medium: EL4 tumour
Dose: dose not given
Relative to: vehicle
Endpoint: log2 fold change
refers to: mannitol/sorbitol: 0.339
refers to: cytosine: -0.0968
refers to: 1-methylguanidine: 2.6
refers to: prolylglycine: 0.658

Study 3
Cell line: UACC-903 melanoma cells
Endpoint: IC50
Clc1ccccc1CNCC1CCC(CNCc2ccccc2Cl)CC1 (stereo not shown): 14.8 µM
CC(C)c1ccc2c(c1)CC[C@H]1[C@](C)(CN)CCC[C@]21C: 2.1 µM
OCCOCCN1CCN(C(c2ccccc2)c2ccc(Cl)cc2)CC1 (stereo not shown): 44.8 µM

Study 4
Cell line: mouse MPNST tumor cells
Method: high-content nuclear imaging
Refers to: cell number
Concentration: 10 µM
Time: 12 h
Setting: mean of 2 replicates
Relative to: plate mean
Reading: higher = more cells
Endpoint: nuclei count
C/C(=C\C(=O)OCCCCCCCCC(=O)O)C[C@@H]1OC[C@H](C[C@@H]2O[C@H]2[C@@H](C)[C@H](C)O)[C@@H](O)[C@H]1O: 0.774 z-score
C=CCc1cccc(/C=N/NC(=O)CN2CCN(Cc3ccccc3)CC2)c1O: -4.66 z-score
CCN(CC)C(=S)SSC(=S)N(CC)CC: -5.6 z-score
Cc1nnn(-c2ccc(-c3ccc(C4(C(=O)O)CC4)cc3)cc2)c1NC(=O)O[C@H](C)c1ccccc1: 0.661 z-score
CN(C(=O)CN(CCO)CC(=O)N(C)C(C)(C)Cc1ccccc1)C(C)(C)Cc1ccccc1: 1.66 z-score
O=C1C(Cl)=C(NCCN2CCOCC2)C(=O)c2ncccc21: -5.12 z-score
O=C(O)c1ccc2cc(-c3ccc(O)c(C45CC6CC(CC(C6)C4)C5)c3)ccc2c1: -4.68 z-score

Repeated from above (study 2):
refers to: mannitol/sorbitol: 0.339
refers to: cytosine: -0.0968
refers to: 1-methylguanidine: 2.6
refers to: prolylglycine: 0.658
